Results collected from several papers.
Numbers after ± are the reported error.
HTR2A: 5-hydroxytryptamine receptor 2A (HTR2A, Homo sapiens, UniProt P28223)
Chain of UniProt P28223 (whole entry, looked up): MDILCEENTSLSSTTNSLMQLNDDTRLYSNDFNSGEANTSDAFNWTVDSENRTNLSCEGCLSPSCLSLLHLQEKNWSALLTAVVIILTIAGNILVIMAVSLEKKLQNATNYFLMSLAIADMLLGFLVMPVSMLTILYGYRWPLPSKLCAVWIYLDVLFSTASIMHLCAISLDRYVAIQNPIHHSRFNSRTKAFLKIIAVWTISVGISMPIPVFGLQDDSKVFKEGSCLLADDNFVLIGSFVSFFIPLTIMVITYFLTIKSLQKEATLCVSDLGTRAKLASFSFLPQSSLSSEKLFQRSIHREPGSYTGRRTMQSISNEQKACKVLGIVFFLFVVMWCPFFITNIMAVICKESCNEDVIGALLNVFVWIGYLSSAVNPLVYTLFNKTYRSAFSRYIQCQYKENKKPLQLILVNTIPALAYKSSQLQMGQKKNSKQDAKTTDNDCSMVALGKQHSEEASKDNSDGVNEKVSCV
FFAR1: Free fatty acid receptor 1 (FFAR1, Homo sapiens, UniProt O14842)
Chain of UniProt O14842 (whole entry, looked up): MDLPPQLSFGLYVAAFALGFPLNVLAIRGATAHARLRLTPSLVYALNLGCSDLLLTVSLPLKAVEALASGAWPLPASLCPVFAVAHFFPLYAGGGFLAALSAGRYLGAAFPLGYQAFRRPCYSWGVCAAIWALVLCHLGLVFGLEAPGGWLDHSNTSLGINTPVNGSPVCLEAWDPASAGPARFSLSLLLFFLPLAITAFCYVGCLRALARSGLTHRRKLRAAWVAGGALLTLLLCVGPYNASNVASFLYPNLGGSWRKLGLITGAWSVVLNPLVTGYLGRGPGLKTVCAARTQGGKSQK
SCTR: Secretin receptor (SCTR, Homo sapiens, UniProt P47872)
Chain of UniProt P47872 (whole entry, looked up): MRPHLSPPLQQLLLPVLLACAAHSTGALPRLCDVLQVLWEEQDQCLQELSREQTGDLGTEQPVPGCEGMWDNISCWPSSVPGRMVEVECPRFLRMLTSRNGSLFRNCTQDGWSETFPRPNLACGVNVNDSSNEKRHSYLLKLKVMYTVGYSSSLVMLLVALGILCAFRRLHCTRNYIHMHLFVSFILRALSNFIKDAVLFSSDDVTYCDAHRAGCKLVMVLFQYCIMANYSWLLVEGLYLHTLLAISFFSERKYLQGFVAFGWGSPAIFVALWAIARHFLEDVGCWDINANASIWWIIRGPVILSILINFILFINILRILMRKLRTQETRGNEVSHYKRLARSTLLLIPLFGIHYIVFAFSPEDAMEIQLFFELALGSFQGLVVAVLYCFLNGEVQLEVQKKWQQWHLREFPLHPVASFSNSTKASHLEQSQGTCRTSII
LPAR2: Lysophosphatidic acid receptor 2 (LPAR2, Homo sapiens, UniProt Q9HBW0)
Chain of UniProt Q9HBW0 (whole entry, looked up): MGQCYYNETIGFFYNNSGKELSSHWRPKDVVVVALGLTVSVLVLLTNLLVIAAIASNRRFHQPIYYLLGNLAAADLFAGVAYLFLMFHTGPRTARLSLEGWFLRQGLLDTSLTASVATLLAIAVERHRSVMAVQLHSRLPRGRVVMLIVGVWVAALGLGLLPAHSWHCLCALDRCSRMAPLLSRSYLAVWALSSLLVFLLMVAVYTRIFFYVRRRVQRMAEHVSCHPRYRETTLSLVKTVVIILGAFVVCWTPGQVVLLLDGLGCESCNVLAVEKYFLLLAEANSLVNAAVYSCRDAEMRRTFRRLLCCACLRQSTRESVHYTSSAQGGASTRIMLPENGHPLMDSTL
HTR2C: 5-hydroxytryptamine receptor 2C (HTR2C, Homo sapiens, UniProt P28335)
Chain of UniProt P28335 (whole entry, looked up): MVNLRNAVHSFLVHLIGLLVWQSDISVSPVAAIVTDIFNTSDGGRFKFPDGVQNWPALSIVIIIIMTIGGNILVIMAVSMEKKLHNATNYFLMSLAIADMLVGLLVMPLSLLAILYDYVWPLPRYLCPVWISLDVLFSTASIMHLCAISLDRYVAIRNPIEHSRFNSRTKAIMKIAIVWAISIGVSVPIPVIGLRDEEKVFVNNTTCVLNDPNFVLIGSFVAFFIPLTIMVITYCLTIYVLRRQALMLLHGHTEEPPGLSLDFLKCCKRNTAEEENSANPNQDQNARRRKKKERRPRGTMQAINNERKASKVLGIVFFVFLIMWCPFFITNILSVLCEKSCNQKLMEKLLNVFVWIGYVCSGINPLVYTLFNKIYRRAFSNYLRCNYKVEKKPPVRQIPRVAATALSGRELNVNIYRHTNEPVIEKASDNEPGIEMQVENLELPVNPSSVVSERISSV

For CN(CCc1ccc(O)c(Br)c1)CCc1nccs1, the Emax was 35.2% (HTR2A; β-arrestin recruitment, agonist).
O=C1NC(=O)C(C2CCOc3cc(Oc4ccc(C(F)(F)F)cc4Cl)ccc32)S1 (stereo not drawn) gave an Emax of 68 ± 5% (FFAR1; IP turnover, agonist; COS-7 transient; reference: GW9508 Emax).
COc1ccc(-c2cc(C(F)(F)F)nc(NCc3ccccc3)n2)cc1 has an Emax of 151 ± 11% (SCTR; increase of tracer binding, TR-FRET; HEK293 membranes; together with: Fluo-Sec 6 nM).
CC=CC(CC(=O)O)c1ccc(OCc2ccc(-c3cc(OC)ccc3F)cc2)cc1 (stereo not drawn) gave an Emax of 171 ± 9% (FFAR1; IP turnover, agonist; COS-7 transient; reference: GW9508 Emax).
The Emax of Clc1ccc(-c2n[nH]cc2CN2CCN(C34CC(C3)C4)CC2)cc1 is reported as 79.3% (HTR2A; β-arrestin recruitment, agonist).
With CCCCCCCC/C=C\CCCCCCCC(=O)O[C@@H]1C=CCO[C@H]1COP(=O)(O)S (stereo partly drawn) the Emax was 41% (LPAR2; agonist, TGFα shedding).
CCOC(=O)c1cnc(CNCCc2c[nH]c3cccc(C)c23)s1 gave an Emax of 93% (HTR2C; β-arrestin recruitment, agonist).
COc1ccc(-c2cc(C(F)(F)F)nc(SCCC(=O)Nc3cc(F)ccc3F)n2)cc1 gave an Emax of 128 ± 11% (SCTR; increase of tracer binding, TR-FRET; HEK293 membranes; together with: Fluo-Sec 6 nM).
For CC(c1ncccn1)N1CCCC(c2ccc(O)cc2)C1 (stereo not drawn), the Emax was 69.3% (HTR2A; β-arrestin recruitment, agonist).
With O=C(CSc1nc(-c2ccccc2)cc(C(F)(F)F)n1)Nc1cccc(Cl)c1Cl the Emax was 140 ± 24% (SCTR; increase of tracer binding, TR-FRET; HEK293 membranes; together with: Fluo-Sec 6 nM).
The Emax of CCCCCCCC/C=C\CCCCCCCC(=O)OC[C@@H]1OCCC[C@H]1OP(=O)(O)S (stereo partly drawn) is reported as 11% (LPAR2; agonist, TGFα shedding).
COc1ccc(-c2cc(C(F)(F)F)nc(SCC(=O)N(C)c3ccccc3)n2)cc1 gave an Emax of 172 ± 26% (SCTR; increase of tracer binding, TR-FRET; HEK293 membranes; together with: Fluo-Sec 6 nM).
The Emax of CCCCCCCC/C=C\CCCCCCCC(=O)O[C@H]1CCCO[C@@H]1COP(=O)(O)S (stereo partly drawn) is reported as 33% (LPAR2; agonist, TGFα shedding).
The Emax of COc1ccc(-c2cc(C(F)(F)F)nc(S(=O)(=O)CCCC(=O)Nc3ccc(F)cc3F)n2)cc1OC is reported as 32% (SCTR; cAMP, agonist).
For CN1CCC=C(c2cc(F)cc3[nH]ccc23)C1, the Emax was 22.5% (HTR2C; β-arrestin recruitment, agonist).

For quick reference, copied from above:
COc1ccc(-c2cc(C(F)(F)F)nc(SCC(=O)N(C)c3ccccc3)n2)cc1 gave an Emax of 172 ± 26% (SCTR; increase of tracer binding, TR-FRET; HEK293 membranes; together with: Fluo-Sec 6 nM).
